Measurements from different studies.
Each numbered part is a random draw from the data of one study; scales do not carry over between parts. Changes are numbered by the printed parent chain.

Sample 1
Molecule: PhoQ, residues 284 288 289 292 302 303 SLSVQF
Method: Sort-seq
Refers to: YFP reporter
Matrix: E. coli
Notes: PhoQ-PhoP variant library
Together with: 10 µM Mg2+
Relative to: high Mg2+ state
Reading: higher = stronger signaling
target | fold induction
PhoP, residues 12 14 15 18 19 NFFVT (Escherichia coli, UniProt P23836) | 16.3
PhoP, residues 12 14 15 18 19 TPWTL (Escherichia coli, UniProt P23836) | 15
PhoP, residues 12 14 15 18 19 LHHYF (Escherichia coli, UniProt P23836) | 7.4

Sample 2
Target: CCNE2, cyclin fold, Cln2 fusion (human)
Method: yeast growth competition, sequencing
Matrix: yeast
Notes: strong parent motif
Relative to: not given
Reading: higher = stronger binding
Parent: SCAPER docking peptide (human); SNARRSLNFGGST
Change | normalised enrichment score
T13R | 1.43
S6G | 1.08
A3T | 0.933
L7W | -0.0927
S12F | 1.59
S6V | 4.76
S12V | 1.13
F9M | 0.983
R4F | 0.0245
G11F | 0.339

Sample 3
Target: ABI1, truncated, D143A, DHFR fusion (Arabidopsis thaliana)
Method: DHFR PCA, deep sequencing
Matrix: yeast
Notes: methotrexate growth selection, single substitutions
Together with: (+)-ABA 200 µM
Relative to: wild-type fitted maximum
Reading: higher = stronger binding
Parent: PYL1, truncated, DHFR fusion (Arabidopsis thaliana); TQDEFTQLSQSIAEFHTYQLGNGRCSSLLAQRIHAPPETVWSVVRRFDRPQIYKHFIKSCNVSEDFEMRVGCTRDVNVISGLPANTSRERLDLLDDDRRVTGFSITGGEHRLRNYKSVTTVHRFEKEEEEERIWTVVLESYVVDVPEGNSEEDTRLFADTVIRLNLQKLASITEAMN
Change | relative binding score [%]
N149G | 61.6
D153V | 9.48
I12R | 76.6
D92H | 54.7
S80L | 15.4
T106Y | 105
R24F | 80.4
Y115T | 1.41
C60R | 13.8
V70I | 99.5
Q19C | 94.7
H122E | 77.2
K54L | -6.9
E109Q | 101
M68L | 106
Q167M | 96.7
S59Y | 84.1

Sample 4
Target: Interferon regulatory factor 5, full length, phosphomimetic (IRF5, Homo sapiens, UniProt Q13568-2, residues 1-514, S451D/S453D/S456D/S462D)
Method: protein-binding microarray
Form: double-stranded DNA, one strand shown
Matrix: in vitro
Tested at: 940 nM top
Notes: 60-bp whole probe
Together with: salmon DNA 0.4 mg/ml
Relative to: random background probes
Reading: higher = stronger binding
Constant ends, left off below: GCCTAGCAC … GTCTTGATTCGCTTGACGCTGCTG
Sequence | fitted relative affinity [z-score]
TTAGGTTTCGACTTTCGCTTAGTGCTA | 8.58
GACGGTTTCCGTTTCCTGACGTGCTAG | 2.39
TTAGGTTACGACTATCGGTTAGTGCTA | 0.469
TTAGGACTGTACTATCGGTTAGTGCTA | 0.168
TTAGAACTGAGTTTCGATCAGTGCTAG | 7.51
TTAGGTATCGGGTATCGGTAAGTGCTA | 7.49
TTAGGACTCGGGTATCGGTTAGTGCTA | 2.91
TTAGGTTTCCTTATGCTTTAGTGCTAG | 1.59
TTAGATTCCAGTTTCCATTAGTGCTAG | 1.55
GACGGTTTCCTACTGGTGACGTGCTAG | 0.675
GACGGTTTCTGACTGGGGACGTGCTAG | 1.7
TCACATCTGATTTCTCAAACTGTGCTA | 0.482
AGTATGTTCCTTATTTAAGAGTGCTAG | 0.438
GACGGTCTCCTTATCCAGACGTGCTAG | 0.513
TTAGGTATCGGTTTCAGTTAGTGCTAG | 10.5
TTAGCTATCGGGTATCGGTTAGTGCTA | 3.01
TATGTTCACTATTTAAGGCCGTGCTAG | -0.119
GACGATCTCAGTATCGAGAAGTGCTAG | 1.78
TTATAACTGAGACTGGATTAGTGCTAG | 0.145
GACGAACTGAGTCTCGAGGCGTGCTAG | 0.387
TTAGGTATAGGTATCGGTTAGTGCTAG | 3.85

Excerpt of the above (sample 4):
Sequence | fitted relative affinity [z-score]
TTAGAACTGAGTTTCGATCAGTGCTAG | 7.51
TTAGGTATCGGGTATCGGTAAGTGCTA | 7.49
TTAGGACTCGGGTATCGGTTAGTGCTA | 2.91
TTAGGTTTCCTTATGCTTTAGTGCTAG | 1.59
TTAGATTCCAGTTTCCATTAGTGCTAG | 1.55
